Assay results pooled from the literature.
Each line is one published result; not all experiments were run side by side. Values joined by “and” are separate records of one study, mostly repeats; a detail may differ. ≈ marks a conversion by molar mass, not a printed value.
CDK2 with cyclin A: Cyclin-dependent kinase 2, with cyclin A (CDK2, Homo sapiens, UniProt P24941)

| SMILES | target or system | assay | system | conditions | scale | measurement | result |
| --- | --- | --- | --- | --- | --- | --- | --- |
| COc1ccccc1NC(=O)CSc1nnc(-c2ccccc2Cl)n1-c1ccccc1 | CDK2 with cyclin A | – | – | – | – | Kd | > 100000 nM |
| CC(C)n1ncc2c(C(=O)NCC3(C)CNC3)cc(C3CC3)nc21 | coxsackievirus B3 | CPE | Vero | 0.15 µM | – | cell protection | 21.9% and 19% |
| O=C(O)CNC(=O)Cc1ccccc1 | – | – | ventricular cardiomyocytes, C57BL/6 mouse | dose not given, 0.56 s | – | sarcomere length | 1.62 µm |
| c1coc(-c2n[nH]cc2-c2ccnc3ccccc23)c1 | TPK2 (Candida albicans) | kinase binding, MIB/MS competition | Candida albicans lysate | 1 µM | reference: DMSO | log2 fold change | -0.28 |
| CN(C)C(=O)c1cc2cnc(Nc3ccc(N4CCNCC4)cn3)nc2n1C1CCCC1 | – | RNA-seq GSEA, refers to: HALLMARK_BILE_ACID_METABOLISM gene set | MB002 tumour | concentration not given | reference: vehicle, direction not given | enrichment score | 0.255 |
| N#Cc1ccn2c(-c3ccncc3)c(-c3ccc(F)cc3)nc2c1 | orf19.4144 kinase Candida albicans | MIB/MS competition binding | Candida albicans cell lysate | 10 µM | reference: DMSO, lower = stronger binding | log2 fold change | 0.0316 |
| NC(=O)c1cnc2[nH]ccc2c1N[C@@H]1[C@@H]2CC3C[C@H]1C[C@@](O)(C3)C2 | – | total naive T cells, flow cytometry | Caucasian humans, peripheral blood | 60 mg single dose | reference: baseline | percent change | -1.07% |
| COc1cnc2cccc(N3CCc4c(cc(Cn5ccnc5C)cc4-c4cn(C)nc4C(F)(F)F)C3=O)c2c1 | BT-20 | cell growth, inhibitor | – | 120 h | – | EC50 | 2080 nM |
| C[C@H](Oc1ccc(Br)cc1-c1ccon1)C(=O)O | – | first response latency | human, tibialis anterior muscle | 50 mg, 15 Hz, single ascending dose | – | difference from placebo | -1.07% |
| CN[C@H](CC(C)C)C(=O)N[C@H]1C(=O)N[C@@H](CC(N)=O)C(=O)N[C@H]2C(=O)N[C@H]3C(=O)N[C@H](C(=O)N[C@H](C(=O)O)c4cc(O)cc(O)c4-c4cc3ccc4O)[C@H](O)c3ccc(c(Cl)c3)Oc3cc2cc(c3O[C@@H]2O[C@H](CO)[C@@H](O)[C@H](O)[C@H]2O[C@H]2C[C@](C)(N)[C@H](O)[C@H](C)O2)Oc2ccc(cc2Cl)[C@H]1O | Staphylococcus | – | MRSA-11, mouse systemic infection | intravenous | survival | ED50 | 9.92 mg/kg |
| COc1cc(C(=O)NS(=O)(=O)c2ccccc2C)ccc1Cc1cn(C)c2ccc(NC(=O)OC3CCCC3)cc12 | native VRAC | ion current, inhibitor, whole-cell patch clamp | wild-type HCT cells | 10 µM, pH 6.0, extracellular pH | – | inhibition | 78.3% and 78.7% and 68.9% and 42.5% and 67.3% |
| Cn1c(Cc2ccccc2)nnc1Sc1ccc([N+](=O)[O-])cc1C(=O)N1CCOCC1 | CDK2 with cyclin A | – | – | – | – | Kd | > 100000 nM |
| CC(C)NCC(O)c1ccc(O)c(O)c1 (stereo not drawn) | – | – | ventricular cardiomyocytes, C57BL/6 mouse | dose not given, 0.388 s | – | sarcomere length | 1.72 µm |
| CCn1cc(-c2cc(Cn3ccoc3=N)cc3c2CCN([C@@H](C)c2cc(OC)ccn2)C3=O)c(C(F)(F)F)n1 | BT-20 | cell growth, inhibitor | – | 120 h | – | EC50 | 2410 nM |
| c1ccc(-c2n[nH]cc2-c2ccnc3ccccc23)nc1 | orf19.4518 kinase Candida albicans | MIB/MS competition binding | Candida albicans cell lysate | 10 µM | reference: DMSO, lower = stronger binding | log2 fold change | 1.41 |
| CC(=O)NC[C@H]1CN(c2ccc(N3CCOCC3)c(F)c2)C(=O)O1 | Enterococcus faecium | agar dilution | vancomycin-intermediate, 25 isolates | – | – | MIC50 | 2 µg/mL (≈ 5.93 µM) |
| N#Cc1ccc2c(-c3ccncc3)c(-c3ccc(F)cc3)nn2c1 | orf19.4144 kinase Candida albicans | MIB/MS competition binding | Candida albicans cell lysate | 10 µM | reference: DMSO, lower = stronger binding | log2 fold change | 0.0512 |
| Cn1cc(-c2ccc(-c3cncc(Cl)c3N3CCC4(CCNC4=O)CC3)cc2)cn1 | COLO 205 | gene expression, microarray, refers to: CABLES1 mRNA | – | concentration not given, 6 h | reference: untreated cells | log2 fold change | 1.26 |

A few entries again:
| SMILES | target or system | assay | system | conditions | scale | measurement | result |
| --- | --- | --- | --- | --- | --- | --- | --- |
| CN[C@H](CC(C)C)C(=O)N[C@H]1C(=O)N[C@@H](CC(N)=O)C(=O)N[C@H]2C(=O)N[C@H]3C(=O)N[C@H](C(=O)N[C@H](C(=O)O)c4cc(O)cc(O)c4-c4cc3ccc4O)[C@H](O)c3ccc(c(Cl)c3)Oc3cc2cc(c3O[C@@H]2O[C@H](CO)[C@@H](O)[C@H](O)[C@H]2O[C@H]2C[C@](C)(N)[C@H](O)[C@H](C)O2)Oc2ccc(cc2Cl)[C@H]1O | Staphylococcus | – | MRSA-11, mouse systemic infection | intravenous | survival | ED50 | 9.92 mg/kg |
| COc1cc(C(=O)NS(=O)(=O)c2ccccc2C)ccc1Cc1cn(C)c2ccc(NC(=O)OC3CCCC3)cc12 | native VRAC | ion current, inhibitor, whole-cell patch clamp | wild-type HCT cells | 10 µM, pH 6.0, extracellular pH | – | inhibition | 78.3% and 78.7% and 68.9% and 42.5% and 67.3% |
